# Assay results collected from several papers.
# Every numbered part comes from another study and shows a few of its results, in no order.

# Series 1
# Cell line: HEK-293T
# Effect on: pseudovirus infection
# Organism: VSV pseudotyped with SARS-CoV-2 spike
# Concentration: 10 µM
# Time: 16 h
# Reference: vehicle-treated
Structure (SMILES),GFP-positive cells [%]
CCc1cc2c(cc1N1CCC(N3CCOCC3)CC1)C(C)(C)c1[nH]c3cc(C#N)ccc3c1C2=O,86.9
COC[C@@H](NC(C)=O)C(=O)NCc1ccccc1,80.3
COc1ccc(-n2nc(C(N)=O)c3c2C(=O)N(c2ccc(N4CCCCC4=O)cc2)CC3)cc1,81.2
CC[C@]1(O)C[C@@H]2CN(CCc3c([nH]c4ccccc34)[C@@](C(=O)OC)(c3cc4c(cc3OC)N(C)[C@H]3[C@@](O)(C(=O)OC)[C@H](OC(C)=O)[C@]5(CC)C=CCN6CC[C@]43[C@@H]65)C2)C1,1.32

# Series 2
# Target: RING finger protein unkempt homolog, zinc fingers 1-6, SBP tag (UNK, Homo sapiens, UniProt Q9C0B0, residues 30-357)
# Chain of UniProt Q9C0B0 (30-357, looked up): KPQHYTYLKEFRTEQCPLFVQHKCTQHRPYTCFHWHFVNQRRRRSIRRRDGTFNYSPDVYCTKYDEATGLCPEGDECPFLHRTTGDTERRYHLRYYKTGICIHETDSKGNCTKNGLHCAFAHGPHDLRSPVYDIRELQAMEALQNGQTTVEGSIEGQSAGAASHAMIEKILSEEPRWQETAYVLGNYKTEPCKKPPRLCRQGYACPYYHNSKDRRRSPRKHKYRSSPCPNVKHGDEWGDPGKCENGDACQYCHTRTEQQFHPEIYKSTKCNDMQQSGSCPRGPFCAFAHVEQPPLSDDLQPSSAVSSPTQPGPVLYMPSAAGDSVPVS
# Technique: RNA Bind-n-Seq
# Molecule type: RNA
# Medium: in vitro
# Concentration: 100 nM
# Setting: RNA with constant flanks, vertebrate orthologous sites, ends assumed
# Reference: input RNA pool
# Direction: higher = stronger binding
# Constant ends, left off below: GGGAGUUCUACAGUCCGACGAUC … CAACAGAGGAUUGAGCAUCA
Strand,bound/input enrichment
AUGGCACGCCCUGUGAGAGGGAGUGGGGGAAGCCCAGGAUGACCCUCAGUUGUUCCAAUCCAGUAUUUUUUCCUUUAAAAAAAAAUUACUGUAUUUAUUAUGACGAUGGUGACUCCCCAG,0.259 ratio
AGCAACUCAAGGAUUCAGGACAAGUUUCACAAAUAUACCAAGUAGAUAUGGAACCAACAAUAGAAUUGGACAGCCAAGACCGUGAUGUACUCCAGUGUAACUUAUUUUUAUGAGGAAUUU,0.368 ratio
GCCCCGGCUCCCAUGAGAGGGAGUGGGGGGAGCUCAGGAUGACCCUCAACUGUUCCAAUCCAGUAUUUUUUUUUCUUUUUUAAAAUUACUGUAUUUAUUAUGACGACGGUGACUCCCCGG,0.497 ratio
ACAUGCGUGCGCUUCUCUACAGUUUAAGAUGCUUCCUUUGGUUCCUCACAUAUCUCAUCCUAUUGACUUACCUAUUUUUUAAAAAUAGCAGUAUAAACUCAAAGUGGACUUAACACAGUG,1.23 ratio
UUGGUUUGGGGUAGAGGGGAGGGAAGGGCAGGAUGGUAUGGAAUCUCUAGCAUAUAUGGGUAGUUAGUUAGGGUACACAGUUAGUUCUAAGUGAGCCUUUGUUAAAAUUUUUUGGGAGGU,2.26 ratio
UUCAGGCACAGUUAACCAGCUCUCAGCAUUCCUUACAAAGUUACCUAACCAGUACAAGUGGAGUUAGUUUUCAGGAUACAUCAAGGCAGUCAUCAUUGCCUUGCAGUCCUAUUGGAGAUG,0.423 ratio
AGACACCUCCCCUUAUGACAGGGAUUGUGGGGGGGGCAGGAUGACUCAGCUGUUCCAAUCCAGUAUUUUAUUUUUCUUCUUUGAAAUAAAAACGGACUGUAUUUAUUAUGACGAUGGUGC,0.707 ratio
GGUGUUUUCAAACAAUAGGAAGCUUUUAUUGUUUUACAGUUUAGUGUAUGGUUUCUAUGUGGAAGACUAAACUCAUGCUUAUAGCUAAAGGGGUGUUUGCCAACUAAAUUUAAGAUGCAG,0.642 ratio

# Series 3
# Target: Centromere-binding protein 1, full length, His-tagged (CBF1, Saccharomyces cerevisiae, UniProt P17106, residues 1-351)
# Chain of UniProt P17106 (whole entry, looked up): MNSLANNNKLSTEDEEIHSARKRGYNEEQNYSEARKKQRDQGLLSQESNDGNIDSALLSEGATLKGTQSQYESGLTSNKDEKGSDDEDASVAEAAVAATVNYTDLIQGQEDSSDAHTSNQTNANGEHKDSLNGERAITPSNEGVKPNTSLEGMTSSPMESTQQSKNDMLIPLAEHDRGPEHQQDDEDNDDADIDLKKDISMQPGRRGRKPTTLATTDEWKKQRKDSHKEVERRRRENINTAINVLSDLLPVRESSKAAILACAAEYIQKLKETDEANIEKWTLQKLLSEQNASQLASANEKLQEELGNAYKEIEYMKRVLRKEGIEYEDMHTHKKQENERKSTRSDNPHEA
# Technique: competition protein-binding microarray
# Molecule type: double-stranded DNA, one strand shown
# Medium: in vitro
# Concentration: 2 µM
# Setting: whole 60-bp probe, lowest competitor level
# Added: Pho4 competitor, 0.05 µM
# Direction: higher = stronger binding
# Constant ends, left off below: … GTCTTGATTCGCTTGACGCTGCTG
Strand,fluorescence intensity [a.u.]
CTAACGAAGGTTTGTCACGTGACTTACAAGCCAAGT,26000
AAAGCGGTAATTTGCTGAGTGGGTGCAGATATCTAT,87.4
AGCCTTCCCGGCAGATTAATTCAATGGGAGTTGCCG,56.7
AAAGCGGTAATTTTTCACGTGGTATCAAATATCTAT,2400
TCTTACCTCCGTTAGCACGTCGTTGGTTAGGCTACT,78.4
CGGGGTTAAGTTTGGGCCGTGGGTGGCTTGCAGCAG,62.3
AACGGTTGATTCATTAATGTGATGACTGTTCACCCT,87.1
CTAACGAAGGTTTGTGTAGTGGGTGACAAGCCAAGT,70.1

# Series 4
# Target: Replicase polyprotein 1ab, main protease (rep, Severe acute respiratory syndrome coronavirus 2, UniProt P0DTD1)
# Effect on: enzyme activity
# Action: inhibitor
# Concentration: 20 µM
# Setting: primary screen
Structure (SMILES),inhibition
Cc1ccc(S(=O)(=O)/C=C/C#N)cc1,95.7%
CCOC(=O)c1c(N)sc(-c2ccccc2)c1C,94.4%
COc1cc(Br)c(Nc2nc(-c3c(C)nc4ncccn34)cs2)c(Br)c1,28.3%
COCCCOc1ccnc(C[S+]([O-])c2nc3ccccc3[nH]2)c1C (stereo not shown),94.3%

# Series 5
# Target: Replicase polyprotein 1ab, nsp13 helicase (rep, Severe acute respiratory syndrome coronavirus 2, UniProt P0DTD1)
# Action: inhibitor
# Concentration: 20 µM
Compound,inhibition
Cc1cnc(Nc2ccc(OCCN3CCCC3)cc2)nc1Nc1cccc(S(=O)(=O)NC(C)(C)C)c1,13%
Cc1ccc(S(=O)(=O)c2ccc([N+](=O)[O-])o2)cc1,68.2%
Nc1c(CC(=O)O)cccc1C(=O)c1ccc(Br)cc1,3.4%
O=C(O)CCCc1ccccc1,4.99%
CN=C(NS(=O)(=O)c1ccc(Cl)cc1)N1C[C@H](c2ccccc2)C(c2ccc(Cl)cc2)=N1 (racemic),5.65%
O=C(O)c1cc(O)c(O)c(O)c1,5.84%
NCCS,4.25%
C[C@]12CC[C@@H]3c4ccc(O)cc4CC[C@H]3[C@@H]1C[C@@H](O)[C@@H]2O,-1.81%
O=C1NS(=O)(=O)c2ccccc21,2.65%
CC(C)(C)c1cc(C=C(C#N)C#N)cc(Br)c1O,5.75%
Cc1ncc(CO)c(CN)c1O,0.56%
CN(C)c1ccc(C(=O)NCCCCCCC(=O)NO)cc1,7.21%
Cc1cccc2c1CC[C@H](CN1CCC(c3c(Cl)cccc3Cl)CC1)C[C@@H]2O,0.68%
Cc1c(NC(=O)OC[C@@H]2COCCN2)cn2ncnc(Nc3ccc4c(cnn4Cc4cccc(F)c4)c3)c12,1.98%
COc1ccc(C(C)=O)c(O)c1,0.31%
CC(=O)NCCc1c[nH]c2ccccc12,0.89%
CC(C)CN(C[C@@H](OP(=O)(O)O)[C@H](Cc1ccccc1)NC(=O)O[C@H]1CCOC1)S(=O)(=O)c1ccc(N)cc1,12.1%
CCCCC1(COC(=O)CCC(=O)O)C(=O)N(c2ccccc2)N(c2ccccc2)C1=O,0.75%
COc1cc(/C=C/C(=O)N2CCCCCCC2)cc(OC)c1OC,7.94%

# Excerpt of the above (series 2):
Strand,bound/input enrichment
GCCCCGGCUCCCAUGAGAGGGAGUGGGGGGAGCUCAGGAUGACCCUCAACUGUUCCAAUCCAGUAUUUUUUUUUCUUUUUUAAAAUUACUGUAUUUAUUAUGACGACGGUGACUCCCCGG,0.497 ratio
ACAUGCGUGCGCUUCUCUACAGUUUAAGAUGCUUCCUUUGGUUCCUCACAUAUCUCAUCCUAUUGACUUACCUAUUUUUUAAAAAUAGCAGUAUAAACUCAAAGUGGACUUAACACAGUG,1.23 ratio
UUGGUUUGGGGUAGAGGGGAGGGAAGGGCAGGAUGGUAUGGAAUCUCUAGCAUAUAUGGGUAGUUAGUUAGGGUACACAGUUAGUUCUAAGUGAGCCUUUGUUAAAAUUUUUUGGGAGGU,2.26 ratio
UUCAGGCACAGUUAACCAGCUCUCAGCAUUCCUUACAAAGUUACCUAACCAGUACAAGUGGAGUUAGUUUUCAGGAUACAUCAAGGCAGUCAUCAUUGCCUUGCAGUCCUAUUGGAGAUG,0.423 ratio
AGACACCUCCCCUUAUGACAGGGAUUGUGGGGGGGGCAGGAUGACUCAGCUGUUCCAAUCCAGUAUUUUAUUUUUCUUCUUUGAAAUAAAAACGGACUGUAUUUAUUAUGACGAUGGUGC,0.707 ratio
